# Assay results from different studies.
# “And” joins repeats or separate records; there may be more than shown. ± gives the spread as reported.
# Method: steady-state kinetics
# B1: enzyme H323A (Acetivibrio thermocellus, UniProt A3DJ38); chain MKLTIPELSLVVLIGSSGSGKSTFAKKHFKPTEVISSDFCRGLVSDDENDQTVTGAAFDVLHYIVSKRLQLGKLTVVDATNVQESARKPLIEIAKDYHCFPVAVVFNLPEKVCQERNKNRTDRQVEEYVIRKHTQQLKKSIKGLQREGFRYVYILNSPEEVEEVVFERQPLWNNKKDEHGPFDIIGDIHGCYDELKMLLEKLGYLIEEVEGGVGSGKYRVTHPEGRKVLFLGDLVDRGPKITEVLKLVMGMVKSGIALCVPGNHDVKLLRKLNGRDVQITHGLDRTLEQLAKEPQEFIEEVKAFIDGLVSHYVLDDGKLVVAAAGMKEEFQGRGSGKVREFALYGETTGETDEYGLPVRYDWASDYRGKALVVYGHTPQAEVLKVNNTINIDTGCVFGGKLTAYRYPEREIVDVKALKTYYEPAKPFLPKEDMAERFEARTDNDILDINDVLGKKIITTRLMSSITIHEENSIAALEVMSRFAADPHWLIYLPPTMSPCETSKKEGMLEHPIEAFEYFRTRGVGKVVCEQKHMGSRAVVIVCKDSQVAEKRFGVLDGTAGICYTRTGRHFFDDMQLEAELIDRVRKVLDKSGFWGDFNTDWVCLDCELMPWSAKAQKLLEEQYSAVGISGRVVLDEAVKLLKQASLNKTVSFDVSRQTSGKNADINELLQRFTERSEMMQKYVEAYRKYCWPVNSIDDLKLAPFHILATEGKVHSDKNHIWHMDTIAKYCTQDDSLIMATNHILVDVTDAESVDKGIKWWEDLTASGGEGMVVKPYDFIVKNGRELLQPAVKCRGREYLRIIYGPEYTMDENIERLRNRAVGKKRSLALREFSLGMEALERFVRNEPLYRVHECVFGVLALESEPVDPRL
# B2: Lxyl-p1-1 A72T/V91S (Lentinula edodes, UniProt G8GLN9); chain YFSGLGLGSERSIFRRDLNSTGDESNSTQWPAPLANGGKSWASAFKKAKSTVTEMTVEELANITSGVIGLCSGVTGAVTRLGIPELCLQDGPIGPRGVHGSSQFPAGLTVAATWDRTLMYARARGMGQEFHDQGVHIALAPVTGGPLGRTPLNGRGWEGTFADPYACGEASYQSVKGLTDAGVATVSKHWIAYEQETSRNLYIEFDGVSQADIQLPISSNVDDLTMHELYMWSFAEAVRAGTNHIMCSYNRINNTHSCNNAKGLNQLLKTELNFQGGVVSDWGGQWDSVLSAENGLDVGMPGEGFLGELGDFWGTTLADLINNGTVSEDLVRDKVVRLLTGYYYLGQDINPPPPFVYNTIGAPTLNATSGYRNVRKPGTAELIKEIGSASVTLLKNTGSLPLKHPQRIAVLGNDATYNVLGPNACGLANSACDIDNLNGTLTTGGGSGSALSPYTITPLEALQKRAIEDNAEIAAVVANSNTTTGAEDAIAALLPDADVTFVFLNRYSEEGADAPDFSLGGDGDNLMDLAVTYSSNVVVVIHTTGVVDIEKWADNPNVTAILVAYLPGQEAGNSLVPVLYGDVAPSGKLPWTWGKSIDDYVPNGVVYTDAYSPQSNFTEGVFIDYRWFDKMGITPRYEFGFGLSYTTFTYSNLIVDHGRWAKDYSSVMETAEPFAEWDGTNSLYDVIFTVFATITNTGNLTGSEVAQLYISIPGDNQPVRQLRGFDKIKDLPVGDSAVVTFPIRRKDVSSWSVVDQLWYVPNGDFLISVGGSSRDLPLNTTWTP
# B3: protein (uncultured bacterium HF130_AEPn_1, UniProt D0E8I5); chain MSLSNSSKVSVLISLLEKSRDLDYIGEAINQLEHSLQCAYFAQRSGADNEMVLAALLHDLGHYCNDTSFEDMGGYGVWQHEKVGADYLRGLGFSERVACLIEGHVAAKRYLVSSKASYLKNLSDASRKTLEYQGGPMDEGERRLFEEREDFKDCLKIRAWDEKGKQTDLKVPGPEHYRKMMEEHLSENQN
# B4: enzyme Q449A (Limosilactobacillus reuteri, UniProt Q8GP32); chain SADTNIENNDSSTVQVTTGDNDIAVKSVTLGSGQVSAASDTTIRTSANANSASSAANTQNSNSQVASSAAITSSTSSAASSNNTDSKAAQENTNTAKNDDTQKAAPANESSEAKNEPAVNVNDSSAAKNDDQQSSKKNTTAKLNKDAENVVKKAGIDPNSLTDDQIKALNKMNFSKAAKSGTQMTYNDFQKIADTLIKQDGRYTVPFFKASEIKNMPAATTKDAQTNTIEPLDVWDSWPVQDVRTGQVANWNGYQLVIAMMGIPNQNDNHIYLLYNKYGDNELSHWKNVGPIFGYNSTAVSQEWSGSAVLNSDNSIQLFYTRVDTSDNNTNHQKIASATLYLTDNNGNVSLAQVANDHIVFEGDGYYYQTYDQWKATNKGADNIAMRDAHVIEDDNGDRYLVFEASTGLENYAGEDQIYNWLNYGGDDAFNIKSLFRILSNDDIKSRATWANAAIGILKLNKDEKNPKVAELYSPLISAPMVSDEIERPNVVKLGNKYYLFAATRLNRGSNDDAWMNANYAVGDNVAMVGYVADSLTGSYKPLNDSGVVLTASVPANWRTATYSYYAVPVAGKDDQVLVTSYMTNRNGVAGKGMDSTWAPSFLLQINPDNTTTVLAKMTNQGDWIWDDSSENLDMIGDLDSAALPGERDKPVDWDLIGYGLKP
# B5: enzyme N249W (Thermobifida fusca, UniProt Q47RK4); chain MTDVYILDAVRTPFGRYGGALSGIRPDDLAAHVLRALAERSPGLDPAAVDDVFFGDANGAGEDNRNVARMAALLAGWPTSVPGVTLNRLCGSGMESVIAANRAIAVGDASLAVAGGVESMSRAPWVLPKPAQGFPTGHETLYSTTLGWRMVNPAMPEQWTVSLGESTEQVAATYGISRAEQDAFALRSHERAARAWAEGVFDAEITQIPGAELERDESIRETSAEKLAALKPAFRPDGTITAGNASPLWDGAAALLIGDAAAAERVGREPLARIVSRGVAAVDPDVFGIGPVQAAEIALRRAGIGWDDLSVVELNEAFAAQSLACLKLWPDLDPEIVNPNGGAIAIGHPLGASGARIVGTLAHELHRRGGGWGLAAICIGVGQGLAVVLHR
# B6: protein N172D (Rhodopseudomonas palustris, UniProt Q6N3R9); chain MSNVRVLATDLAFPEGPVVMPDGSVVLVEIRAQQLTRVWPDGRKEVVAKVPGGPNGAALGPDGKMYICNNGGFGWFPSRGTMMPGAPAPHEYIGGSIQRVDLQSGEVETLFDKCGEHPLKGPNDLVFDKHGGLWFTDLGKRRARDMDVGAAYYIKPGMTEITEQVFGTLPLDGIGLSPDEATMYAAETPTGRLWAFDLSGPGEVKPRDVIYRGEKGKPICGLGGYQMFDSLAVEASGNVCVATLVSGCISVIAPDGTLVEQVPTGDRVTTNIAFGGPDLKTAYITLSGKGELIAMDWSRPGLPLNFLNK
# B7: CYP2C19 (Homo sapiens, UniProt P33261); chain MDPFVVLVLCLSCLLLLSIWRQSSGRGKLPPGPTPLPVIGNILQIDIKDVSKSLTNLSKIYGPVFTLYFGLERMVVLHGYEVVKEALIDLGEEFSGRGHFPLAERANRGFGIVFSNGKRWKEIRRFSLMTLRNFGMGKRSIEDRVQEEARCLVEELRKTKASPCDPTFILGCAPCNVICSIIFQKRFDYKDQQFLNLMEKLNENIRIVSTPWIQICNNFPTIIDYFPGTHNKLLKNLAFMESDILEKVKEHQESMDINNPRDFIDCFLIKMEKEKQNQQSEFTIENLVITAADLLGAGTETTSTTLRYALLLLLKHPEVTAKVQEEIERVIGRNRSPCMQDRGHMPYTDAVVHEVQRYIDLIPTSLPHAVTCDVKFRNYLIPKGTTILTSLTSVLHDNKEFPNPEMFDPRHFLDEGGNFKKSNYFMPFSAGKRICVGEGLARMELFLFLTFILQNFNLKSLIDPKDLDTTPVVNGFASVPPFYQLCFIPV
# Sequence of UniProt Q9F1Y6 (whole entry, looked up): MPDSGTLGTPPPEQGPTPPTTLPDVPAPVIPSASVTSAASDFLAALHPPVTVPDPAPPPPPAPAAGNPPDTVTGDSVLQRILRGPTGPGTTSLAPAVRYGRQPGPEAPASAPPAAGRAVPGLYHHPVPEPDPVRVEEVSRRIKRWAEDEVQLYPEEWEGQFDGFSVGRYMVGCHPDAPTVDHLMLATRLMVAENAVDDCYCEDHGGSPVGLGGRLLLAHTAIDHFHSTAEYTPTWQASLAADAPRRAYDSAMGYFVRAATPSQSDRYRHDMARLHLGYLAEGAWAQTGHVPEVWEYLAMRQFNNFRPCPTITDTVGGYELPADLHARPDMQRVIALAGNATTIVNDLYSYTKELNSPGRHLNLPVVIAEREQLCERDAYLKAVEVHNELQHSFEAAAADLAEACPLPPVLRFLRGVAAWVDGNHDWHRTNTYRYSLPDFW
# Sequence of UniProt Q6XEC0 (whole entry, looked up): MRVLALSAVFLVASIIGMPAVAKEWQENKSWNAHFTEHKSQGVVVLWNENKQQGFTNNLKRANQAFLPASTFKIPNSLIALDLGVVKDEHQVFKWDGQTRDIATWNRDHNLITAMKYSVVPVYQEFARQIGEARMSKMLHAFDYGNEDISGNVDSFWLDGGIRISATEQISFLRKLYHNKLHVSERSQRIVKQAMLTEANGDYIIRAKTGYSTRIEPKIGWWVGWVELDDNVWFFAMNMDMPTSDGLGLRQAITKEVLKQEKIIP
# Sequence of UniProt P76562 (whole entry, looked up): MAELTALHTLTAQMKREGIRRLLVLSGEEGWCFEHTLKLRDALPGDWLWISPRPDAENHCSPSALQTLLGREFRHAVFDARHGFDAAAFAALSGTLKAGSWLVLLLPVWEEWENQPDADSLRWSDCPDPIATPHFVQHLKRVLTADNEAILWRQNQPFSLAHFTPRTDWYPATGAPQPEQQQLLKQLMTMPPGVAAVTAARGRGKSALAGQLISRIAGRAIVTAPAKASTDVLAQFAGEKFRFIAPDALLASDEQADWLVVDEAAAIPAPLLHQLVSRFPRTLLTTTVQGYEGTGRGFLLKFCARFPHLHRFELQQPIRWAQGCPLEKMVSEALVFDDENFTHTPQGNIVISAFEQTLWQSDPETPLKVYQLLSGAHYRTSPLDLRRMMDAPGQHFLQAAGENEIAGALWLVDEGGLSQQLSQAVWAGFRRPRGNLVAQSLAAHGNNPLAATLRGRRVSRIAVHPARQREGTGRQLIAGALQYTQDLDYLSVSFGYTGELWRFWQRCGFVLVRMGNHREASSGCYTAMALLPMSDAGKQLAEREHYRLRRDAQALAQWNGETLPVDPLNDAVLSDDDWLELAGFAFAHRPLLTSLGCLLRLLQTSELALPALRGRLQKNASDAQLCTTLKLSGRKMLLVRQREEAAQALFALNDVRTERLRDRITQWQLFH
Substance,substrate,pH,temperature,setting,with,kcat
"OXA-48 (Klebsiella pneumoniae, UniProt Q6XEC0)",C[C@@H](O)[C@H]1C(=O)N2C(C(=O)O)=C(SCCN=CN)C[C@H]12,pH 7.2,30 °C,,,2.7 ± 0.2 s⁻¹
B1 (enzyme H323A),Nc1ncnc2c1ncn2[C@@H]1O[C@H](CO)[C@H]2OP(=O)(O)O[C@H]21,pH 7.5,45 °C,,,9.1 ± 0.567 s⁻¹
B2 (Lxyl-p1-1 A72T/V91S),[H][C@]12[C@H](OC(=O)c3ccccc3)[C@]3(O)C[C@H](OC(=O)[C@H](O)[C@@H](NC(=O)c4ccccc4)c4ccccc4)C(C)=C([C@@H](O)C(=O)[C@]1(C)[C@@H](O[C@@H]1OC[C@@H](O)[C@H](O)[C@H]1O)C[C@@]1([H])OC[C@@]21OC(C)=O)C3(C)C,,,,,3.32 ± 0.17 s⁻¹
"tmcA (Escherichia coli, UniProt P76562)",Nc1ncnc2c1ncn2[C@@H]1O[C@H](COP(=O)(O)OP(=O)(O)OP(=O)(O)O)[C@@H](O)[C@H]1O,pH 7.8,,"10 mM KCl, no tRNA, no acetyl-CoA",MgCl2 10 mM,0.00807 s⁻¹
B3 (protein),NC[C@H](O)P(=O)(O)O,pH 7,25 °C,NaCl 150 mM,"O2, Fe(II) 100 µM, ascorbate 100 µM",6.8 ± 0.3 s⁻¹
"enzyme (Streptomyces coelicolor, UniProt Q9F1Y6)",CC(C)=CCC/C(C)=C(\C)COP(=O)(O)OP(=O)(O)O,pH 6.7,30 °C,,,0.105 ± 0.007 s⁻¹
B4 (enzyme Q449A),OC[C@H]1O[C@@](CO)(O[C@H]2O[C@H](CO)[C@@H](O)[C@H](O)[C@H]2O)[C@@H](O)[C@@H]1O,pH 5.5,50 °C,apparent,,430 s⁻¹ and 450 s⁻¹
"nitrilase (Rhodococcus rhodochrous, UniProt A4LA85)",Cc1cccc(C#N)c1,pH 7.5,25 °C,,,0.000238 ± 2e-05 s⁻¹
B5 (enzyme N249W),CC(C)(COP(=O)(O)OP(=O)(O)OC[C@H]1O[C@@H](n2cnc3c(N)ncnc32)[C@H](O)[C@@H]1OP(=O)(O)O)[C@@H](O)C(=O)NCCC(=O)NCCSC(=O)CCC(=O)O,pH 7.4,37 °C,,,0.0055 ± 5.33e-05 s⁻¹
B6 (protein N172D),O=C1CCc2ccccc2O1,pH 8,,"NaCl 150 mM, no saturation",CaCl2 1 mM,> 14 s⁻¹
B7 (CYP2C19),CCOC(=O)C1(c2ccccc2)CCN(C)CC1,pH 7.4,,,,0.467 ± 0.0833 s⁻¹

# Excerpt of the above:
Substance,substrate,pH,temperature,setting,with,kcat
"enzyme (Streptomyces coelicolor, UniProt Q9F1Y6)",CC(C)=CCC/C(C)=C(\C)COP(=O)(O)OP(=O)(O)O,pH 6.7,30 °C,,,0.105 ± 0.007 s⁻¹
B4 (enzyme Q449A),OC[C@H]1O[C@@](CO)(O[C@H]2O[C@H](CO)[C@@H](O)[C@H](O)[C@H]2O)[C@@H](O)[C@@H]1O,pH 5.5,50 °C,apparent,,430 s⁻¹ and 450 s⁻¹
